{"data": "Measured values of several laboratories", "note": "Each numbered part is a random draw from the data of one study; scales do not carry over between parts.", "chain of UniProt P43116 (whole entry, looked up)": "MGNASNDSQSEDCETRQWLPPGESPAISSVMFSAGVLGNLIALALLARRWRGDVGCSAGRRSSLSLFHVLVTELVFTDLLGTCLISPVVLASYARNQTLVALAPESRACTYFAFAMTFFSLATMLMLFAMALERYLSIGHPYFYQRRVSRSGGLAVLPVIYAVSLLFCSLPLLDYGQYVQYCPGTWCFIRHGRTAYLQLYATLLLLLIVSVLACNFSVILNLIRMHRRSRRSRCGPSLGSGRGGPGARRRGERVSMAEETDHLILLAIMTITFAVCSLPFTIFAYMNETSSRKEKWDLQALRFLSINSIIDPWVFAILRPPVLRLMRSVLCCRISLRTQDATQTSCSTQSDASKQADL", "chain of UniProt Q99677 (whole entry, looked up)": "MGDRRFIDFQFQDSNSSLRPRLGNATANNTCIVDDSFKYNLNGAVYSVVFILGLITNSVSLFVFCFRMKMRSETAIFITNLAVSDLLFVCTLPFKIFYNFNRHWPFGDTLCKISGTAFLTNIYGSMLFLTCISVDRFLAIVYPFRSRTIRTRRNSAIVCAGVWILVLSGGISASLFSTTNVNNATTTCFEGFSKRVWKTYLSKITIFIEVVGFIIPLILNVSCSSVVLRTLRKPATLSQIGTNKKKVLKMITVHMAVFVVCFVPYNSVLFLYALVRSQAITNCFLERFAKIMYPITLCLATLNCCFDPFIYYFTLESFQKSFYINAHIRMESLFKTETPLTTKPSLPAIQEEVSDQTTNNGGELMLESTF", "chain of UniProt P52333 (whole entry, looked up)": "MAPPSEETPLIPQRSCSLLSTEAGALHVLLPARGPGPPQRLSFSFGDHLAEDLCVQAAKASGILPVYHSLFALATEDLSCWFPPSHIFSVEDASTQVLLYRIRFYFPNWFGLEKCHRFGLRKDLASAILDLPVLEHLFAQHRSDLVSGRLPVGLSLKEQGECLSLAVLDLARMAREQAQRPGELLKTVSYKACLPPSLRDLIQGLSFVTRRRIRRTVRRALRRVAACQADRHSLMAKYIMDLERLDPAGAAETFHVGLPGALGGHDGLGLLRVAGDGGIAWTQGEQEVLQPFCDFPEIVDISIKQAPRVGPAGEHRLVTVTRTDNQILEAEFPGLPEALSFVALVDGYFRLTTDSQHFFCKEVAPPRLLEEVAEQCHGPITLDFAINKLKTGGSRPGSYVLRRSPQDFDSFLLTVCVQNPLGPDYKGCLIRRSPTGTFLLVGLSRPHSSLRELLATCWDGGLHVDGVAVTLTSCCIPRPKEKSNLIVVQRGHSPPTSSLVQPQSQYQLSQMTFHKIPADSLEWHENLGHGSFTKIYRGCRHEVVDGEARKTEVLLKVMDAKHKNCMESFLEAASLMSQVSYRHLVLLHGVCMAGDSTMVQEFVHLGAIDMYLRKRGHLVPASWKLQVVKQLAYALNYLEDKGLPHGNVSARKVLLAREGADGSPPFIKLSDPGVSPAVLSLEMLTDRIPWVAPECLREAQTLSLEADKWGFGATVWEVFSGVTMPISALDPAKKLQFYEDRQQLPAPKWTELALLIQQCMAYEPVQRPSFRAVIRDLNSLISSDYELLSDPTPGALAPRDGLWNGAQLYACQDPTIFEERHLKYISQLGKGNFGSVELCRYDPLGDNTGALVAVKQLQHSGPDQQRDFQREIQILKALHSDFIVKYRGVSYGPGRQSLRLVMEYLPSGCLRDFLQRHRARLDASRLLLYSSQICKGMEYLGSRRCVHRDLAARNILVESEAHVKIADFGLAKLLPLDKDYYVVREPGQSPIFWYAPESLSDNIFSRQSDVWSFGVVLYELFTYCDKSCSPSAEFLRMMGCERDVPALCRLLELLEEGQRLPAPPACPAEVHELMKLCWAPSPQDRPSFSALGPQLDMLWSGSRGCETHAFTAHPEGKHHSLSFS", "chain of UniProt P04049 (whole entry, looked up)": "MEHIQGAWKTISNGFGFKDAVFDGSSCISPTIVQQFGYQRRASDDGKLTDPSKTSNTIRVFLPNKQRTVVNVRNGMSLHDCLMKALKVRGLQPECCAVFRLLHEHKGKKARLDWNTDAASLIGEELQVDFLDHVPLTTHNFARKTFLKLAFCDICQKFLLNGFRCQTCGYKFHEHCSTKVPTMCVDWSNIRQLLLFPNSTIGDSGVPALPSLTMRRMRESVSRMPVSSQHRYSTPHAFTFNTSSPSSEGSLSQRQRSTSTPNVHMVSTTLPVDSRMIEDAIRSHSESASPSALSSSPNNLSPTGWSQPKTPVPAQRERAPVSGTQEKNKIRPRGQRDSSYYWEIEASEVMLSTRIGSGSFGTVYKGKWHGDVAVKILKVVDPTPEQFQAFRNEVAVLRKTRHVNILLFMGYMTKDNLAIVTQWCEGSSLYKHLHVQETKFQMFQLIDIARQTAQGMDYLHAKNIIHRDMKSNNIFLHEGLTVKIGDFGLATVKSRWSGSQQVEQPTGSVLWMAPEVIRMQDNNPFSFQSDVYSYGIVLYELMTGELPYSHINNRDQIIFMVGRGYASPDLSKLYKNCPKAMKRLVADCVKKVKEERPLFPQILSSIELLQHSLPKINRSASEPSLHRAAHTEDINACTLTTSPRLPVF", "chain of UniProt P51812 (whole entry, looked up)": "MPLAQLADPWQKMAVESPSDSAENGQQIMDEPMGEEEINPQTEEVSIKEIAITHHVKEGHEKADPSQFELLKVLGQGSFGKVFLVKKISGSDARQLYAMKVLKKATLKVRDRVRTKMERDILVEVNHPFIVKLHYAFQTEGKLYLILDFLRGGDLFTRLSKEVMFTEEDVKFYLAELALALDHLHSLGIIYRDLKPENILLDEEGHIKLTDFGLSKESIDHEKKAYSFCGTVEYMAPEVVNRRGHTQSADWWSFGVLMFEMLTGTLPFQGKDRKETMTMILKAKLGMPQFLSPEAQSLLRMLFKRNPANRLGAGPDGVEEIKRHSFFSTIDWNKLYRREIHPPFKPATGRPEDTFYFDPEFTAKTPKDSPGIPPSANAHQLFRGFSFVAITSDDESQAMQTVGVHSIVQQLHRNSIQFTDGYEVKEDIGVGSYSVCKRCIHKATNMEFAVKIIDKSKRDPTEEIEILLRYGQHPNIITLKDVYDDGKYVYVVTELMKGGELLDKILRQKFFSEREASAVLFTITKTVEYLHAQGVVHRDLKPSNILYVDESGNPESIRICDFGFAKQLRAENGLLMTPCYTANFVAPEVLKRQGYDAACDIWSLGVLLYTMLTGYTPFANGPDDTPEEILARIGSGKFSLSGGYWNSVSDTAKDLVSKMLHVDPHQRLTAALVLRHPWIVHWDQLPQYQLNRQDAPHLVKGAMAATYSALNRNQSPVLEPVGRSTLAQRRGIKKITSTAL", "chain of UniProt O00254 (whole entry, looked up)": "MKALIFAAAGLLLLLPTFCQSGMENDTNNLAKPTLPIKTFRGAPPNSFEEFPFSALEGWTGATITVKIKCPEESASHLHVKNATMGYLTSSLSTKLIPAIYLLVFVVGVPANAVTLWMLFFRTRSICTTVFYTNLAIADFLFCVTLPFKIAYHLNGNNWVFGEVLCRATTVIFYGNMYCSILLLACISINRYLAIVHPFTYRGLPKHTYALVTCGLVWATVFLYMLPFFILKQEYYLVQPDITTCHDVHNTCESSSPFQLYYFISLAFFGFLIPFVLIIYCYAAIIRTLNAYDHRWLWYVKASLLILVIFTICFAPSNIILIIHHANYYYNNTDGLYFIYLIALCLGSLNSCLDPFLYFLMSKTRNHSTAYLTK", "chain of UniProt Q16288 (whole entry, looked up)": "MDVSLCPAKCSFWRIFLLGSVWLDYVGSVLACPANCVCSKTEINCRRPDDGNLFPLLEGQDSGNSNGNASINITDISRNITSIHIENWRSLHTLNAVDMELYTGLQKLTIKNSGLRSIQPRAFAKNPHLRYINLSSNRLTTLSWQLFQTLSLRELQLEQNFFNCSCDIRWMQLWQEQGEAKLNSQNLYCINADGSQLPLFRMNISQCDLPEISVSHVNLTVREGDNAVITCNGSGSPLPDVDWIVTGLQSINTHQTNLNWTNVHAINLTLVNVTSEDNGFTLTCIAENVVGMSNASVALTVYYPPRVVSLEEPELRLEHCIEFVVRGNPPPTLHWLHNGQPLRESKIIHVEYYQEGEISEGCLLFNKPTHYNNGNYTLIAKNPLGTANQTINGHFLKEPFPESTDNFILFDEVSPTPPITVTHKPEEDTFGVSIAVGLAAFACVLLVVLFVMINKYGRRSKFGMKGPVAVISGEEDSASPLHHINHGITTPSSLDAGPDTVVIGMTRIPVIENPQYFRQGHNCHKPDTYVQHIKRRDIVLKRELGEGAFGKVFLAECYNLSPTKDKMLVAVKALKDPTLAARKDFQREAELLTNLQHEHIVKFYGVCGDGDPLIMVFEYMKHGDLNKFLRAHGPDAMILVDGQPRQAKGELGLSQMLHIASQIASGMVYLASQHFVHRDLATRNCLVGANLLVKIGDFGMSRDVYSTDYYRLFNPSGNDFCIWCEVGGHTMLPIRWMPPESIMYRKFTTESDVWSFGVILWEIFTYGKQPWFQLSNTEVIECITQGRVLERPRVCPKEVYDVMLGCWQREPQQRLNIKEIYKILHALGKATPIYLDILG", "chain of UniProt P36507 (whole entry, looked up)": "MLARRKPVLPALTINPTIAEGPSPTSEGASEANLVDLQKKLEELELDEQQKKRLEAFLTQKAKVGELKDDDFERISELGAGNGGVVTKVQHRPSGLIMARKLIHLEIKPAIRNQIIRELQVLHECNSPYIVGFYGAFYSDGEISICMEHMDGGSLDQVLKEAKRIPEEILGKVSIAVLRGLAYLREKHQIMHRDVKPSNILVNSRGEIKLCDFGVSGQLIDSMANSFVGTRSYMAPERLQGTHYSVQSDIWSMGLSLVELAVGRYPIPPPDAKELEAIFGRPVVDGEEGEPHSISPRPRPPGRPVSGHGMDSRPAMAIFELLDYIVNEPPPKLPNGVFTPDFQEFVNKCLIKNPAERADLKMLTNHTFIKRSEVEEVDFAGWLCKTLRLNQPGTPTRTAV"}
{"data": "Study 1", "organism": "Sarcocystis neurona", "effect on": "parasite growth", "tested at": "10 µM", "time": "96 h", "setting": "secondary screen"}
{"Compound": "O=C1CCC(N2C(=O)c3ccccc3C2=O)C(=O)N1 (stereo not shown)", "inhibition": "-15.4%"}
{"Compound": "Cc1nnc(SCC2=C(C(=O)O)N3C(=O)[C@@H](NC(=O)Cn4cnnn4)[C@H]3SC2)s1", "inhibition": "-19.9%"}
{"Compound": "COC(=O)C1=C(C)NC(C)=C(C(=O)OC)C1c1ccccc1[N+](=O)[O-]", "inhibition": "-20.3%"}
{"Compound": "CN(C)CCC[C@@]1(c2ccc(F)cc2)OCc2cc(C#N)ccc21", "inhibition": "-27.6%"}
{"Compound": "CC(C[N+](C)(C)C)OC(N)=O (stereo not shown)", "inhibition": "-15.8%"}
{"Compound": "CC(C)[C@H]1CC[C@H](C(=O)N[C@H](Cc2ccccc2)C(=O)O)CC1", "inhibition": "6.2%"}
{"Compound": "CC1CNc2c(cccc2S(=O)(=O)N[C@@H](CCCNC(=N)N)C(=O)N2CC[C@@H](C)C[C@@H]2C(=O)O)C1 (stereo partly shown)", "inhibition": "-25.7%"}
{"data": "Study 2", "Compound": "CCOc1cc2ncnc(Nc3cccc(Br)c3)c2cc1OCC", "effect on": "enzyme activity", "mode": "inhibitor", "tested at": "0.5 µM", "baseline": "control"}
{"target": "Mitogen-activated protein kinase kinase kinase 5 (MAP3K5, Homo sapiens, UniProt Q99683)", "remaining activity": "116%"}
{"target": "Ribosomal protein S6 kinase alpha-2 (RPS6KA2, Homo sapiens, UniProt Q15349)", "remaining activity": "74.5%"}
{"target": "Wee1-like protein kinase (WEE1, Homo sapiens, UniProt P30291)", "remaining activity": "97.9%"}
{"target": "Tyrosine-protein kinase Mer (MERTK, Homo sapiens, UniProt Q12866)", "remaining activity": "87.1%"}
{"target": "Activin receptor type-1B (ACVR1B, Homo sapiens, UniProt P36896)", "remaining activity": "101%"}
{"target": "Serine/threonine-protein kinase TBK1 (TBK1, Homo sapiens, UniProt Q9UHD2)", "remaining activity": "85.4%"}
{"target": "Mitogen-activated protein kinase kinase kinase 14 (MAP3K14, Homo sapiens, UniProt Q99558)", "remaining activity": "93.4%"}
{"target": "Serine/threonine-protein kinase Nek6 (NEK6, Homo sapiens, UniProt Q9HC98)", "remaining activity": "106%"}
{"target": "Ephrin type-A receptor 3 (EPHA3, Homo sapiens, UniProt P29320)", "remaining activity": "83.3%"}
{"target": "Tyrosine-protein kinase ABL2 (ABL2, Homo sapiens, UniProt P42684)", "remaining activity": "52.1%"}
{"target": "Casein kinase I isoform gamma-2 (CSNK1G2, Homo sapiens, UniProt P78368)", "remaining activity": "103%"}
{"target": "Tyrosine-protein kinase JAK3 (JAK3, Homo sapiens, UniProt P52333)", "remaining activity": "102%"}
{"target": "Casein kinase I isoform gamma-3 (CSNK1G3, Homo sapiens, UniProt Q9Y6M4)", "remaining activity": "98.7%"}
{"target": "Dual specificity mitogen-activated protein kinase kinase 2 (MAP2K2, Homo sapiens, UniProt P36507)", "remaining activity": "95.5%"}
{"data": "Study 3", "Structure (SMILES)": "CC(C)CC(=O)N1CCc2nc(-c3ccc(Br)cc3)nc(N(C)Cc3ccccc3)c2C1", "effect on": "cell-free assay", "method": "competition with immobilised ligand", "tested at": "0.1 µM"}
{"target": "NT-3 growth factor receptor (NTRK3, Homo sapiens, UniProt Q16288)", "remaining binding [%]": 100}
{"target": "Receptor-type tyrosine-protein kinase FLT3 (FLT3, Homo sapiens, UniProt P36888, D835H)", "remaining binding [%]": 100}
{"target": "Dual specificity tyrosine-phosphorylation-regulated kinase 1A (DYRK1A, Homo sapiens, UniProt Q13627)", "remaining binding [%]": 78}
{"target": "RAF proto-oncogene serine/threonine-protein kinase (RAF1, Homo sapiens, UniProt P04049)", "remaining binding [%]": 100}
{"target": "Ribosomal protein S6 kinase alpha-6, N-terminal kinase domain (RPS6KA6, Homo sapiens, UniProt Q9UK32)", "remaining binding [%]": 100}
{"target": "Ribosomal protein S6 kinase alpha-3, N-terminal kinase domain (RPS6KA3, Homo sapiens, UniProt P51812)", "remaining binding [%]": 94}
{"target": "Serine/threonine-protein kinase LATS1 (LATS1, Homo sapiens, UniProt O95835)", "remaining binding [%]": 67}
{"data": "Study 4", "SMILES": "NC(N)=NC(=O)c1nc(Cl)c(N2CCCCCC2)nc1N", "effect on": "β-arrestin recruitment", "mode": "agonist", "method": "PRESTO-Tango", "tested at": "10 µM", "baseline": "untreated"}
{"target": "Lysophosphatidic acid receptor 4 (LPAR4, Homo sapiens, UniProt Q99677)", "fold over basal": 0.82}
{"target": "Gamma-aminobutyric acid type B receptor subunit 1 (GABBR1, Homo sapiens, UniProt Q9UBS5)", "fold over basal": "1.11 fold"}
{"target": "Prostaglandin E2 receptor EP2 subtype (PTGER2, Homo sapiens, UniProt P43116)", "fold over basal": 0.6}
{"target": "Muscarinic acetylcholine receptor M5 (CHRM5, Homo sapiens, UniProt P08912)", "fold over basal": 1.08}
{"target": "Proteinase-activated receptor 3 (F2RL2, Homo sapiens, UniProt O00254)", "fold over basal": 1.17}
{"target": "Histamine H2 receptor (HRH2, Homo sapiens, UniProt P25021)", "fold over basal": "1.42 fold"}
{"note": "For quick reference, copied from above (study 2):"}
{"target": "Tyrosine-protein kinase JAK3 (JAK3, Homo sapiens, UniProt P52333)", "remaining activity": "102%"}
{"target": "Serine/threonine-protein kinase TBK1 (TBK1, Homo sapiens, UniProt Q9UHD2)", "remaining activity": "85.4%"}
{"target": "Serine/threonine-protein kinase Nek6 (NEK6, Homo sapiens, UniProt Q9HC98)", "remaining activity": "106%"}
{"target": "Tyrosine-protein kinase ABL2 (ABL2, Homo sapiens, UniProt P42684)", "remaining activity": "52.1%"}
